# Experimental data from different studies.
# Parts stem from different laboratories: compare values within a part only. Changes are numbered by the printed parent chain.

# Series 1 — technique: DHFR PCA, deep sequencing; medium: yeast; with: (+)-ABA 4.8 µM; relative to: wild-type fitted maximum; reading: higher = stronger binding
# Target: ABI1, truncated, D143A, DHFR fusion (Arabidopsis thaliana)
# Setting: methotrexate growth selection, single substitutions
# Starting sequence: PYL1, truncated, DHFR fusion (Arabidopsis thaliana); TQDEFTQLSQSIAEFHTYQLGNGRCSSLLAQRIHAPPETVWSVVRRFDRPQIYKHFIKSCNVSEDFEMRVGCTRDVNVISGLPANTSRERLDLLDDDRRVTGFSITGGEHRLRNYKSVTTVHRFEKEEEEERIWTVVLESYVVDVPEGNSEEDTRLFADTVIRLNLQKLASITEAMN
Change,relative binding score
Y141A,13.6%
R69W,13.7%
F5V,71.6%
T173L,22%
Q10T,73.8%
I79T,53.7%
S171W,46.5%
C25K,-14.9%
Y18I,21.2%
I133E,97.6%
E147T,55.9%
K116G,0.649%
G71S,9.16%

# Series 2 — target: CCNE1, cyclin fold, Cln2 fusion (human); technique: yeast growth competition, sequencing; medium: yeast; setting: weak parent motif; relative to: not given; reading: higher = stronger binding
# Starting sequence: SLBP docking peptide (human); ARYKRKLLINDFG
Change,normalised enrichment score
I9L,0.79
R2M,0.379
K4H,1.16
K4T,-0.702
K4S,-0.0938
I9G,0.779
D11C,1.18
R2H,0.669
K6G,0.733
R5A L7A,0.0976
I9Y,1.37
N10V,0.403
I9M,0.615
L8V,0.914
K6H,-0.428
F12Q,0.111
G13V,1.57

# Series 3 — technique: RNA Bind-n-Seq; form: RNA; medium: in vitro; tested at: 365 nM; relative to: no-protein control; reading: higher = stronger binding
# Target: RNA binding protein fox-1 homolog 2, RRM domain, GST-SBP tag (RBFOX2, Homo sapiens, UniProt O43251-10, residues 100-194)
# Setting: natural RNA segment, single round, ends assumed
# Constant ends, left off below: GGGAGUUCUACAGUCCGACGAUC … UGGAAUUCUCGGGUGCCAA
# Construct (chain): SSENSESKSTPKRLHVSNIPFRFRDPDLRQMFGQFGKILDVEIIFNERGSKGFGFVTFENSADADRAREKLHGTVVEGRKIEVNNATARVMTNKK
Sequence,RBNS enrichment (R)
CUUUUGUAAAGAAUCCUUUUGUAAUGCAAACCAAUUAUCCCUGAAGGUAUCUGUUUUGUAAGUUUGGAUUUUUGUAUAUCUGGUUUAUCUUAAGCUUCUCUACUGAGGCA,0.377
CUGUAGACCAGCUGGCCUCAAACUCAGAAAUCCGCCUGUCUCUGCCUCCCGAGCACUGGGAUUAAAGGUGUGCACCACCACUGUCUGGCUCAGGAAAGCUGUUUUUACAC,0.315
CCCUUGAACUUGUGAUCCUUCUGCCUCAGUUGCCUCCCAAAUUAUAGGGUUAUGUCACCAACUUGCAGCCUGAGACACUUGUUUUAAAAAGCUCAGUGUUUUAUUUCAGU,0.426
CCUGGAAUAUUAGAUGGAAAGCUUCACAUUAGCAUUUUGUGCAUAAUGAUAGAAACAGAUUCUGAUAAUACAAGGGGAGGGUCUAGGUACUCUUUAAGUGAUAGAAUAUG,0.406
UCCACCAGUGCAUGGCAGUGCCCAUGCAUGCCGGCAUAUUCAGCAGCUGUCACCUUACUCCCAUCCCAGGAGGCCGUAAGGCCUCCCACCUCUCCCCUGUGACUGCAGCU,0.427
GUGGUAUAAGCAAAACUACAUGGACUCUGUCCUGGUAUCCUUUUCCUGUGUGGUUGCCCCGUGUCCUCUGGCCUAGGGUUAAGUGUGCAAGAUAACUACUCGUGAGUAUU,0.24
AGGUCAUACUGGGCAACAGUGUUCUUCUUUAGAACACUGUAGGCUCUUCUCACUGGAAGAGCAGAGGGAAACCUGGCCGUCGUGUAUUCUCCUUAUGUUUAAAUGCACAG,0.279
AUUAUAUUCUAAUGCUAAAUCACUUGGCAAGAGUGUAUUUUAAUGAUGCCUAAUUUCUCUAUGUUCUGUUUGAAGGUUUCUGUCCAGAUAAAAUUGUCUUUUGAAAUUCA,0.525
ACCGGUCAGCAACCUUGGCAUUGAUACAUAGGCACUCUACAGAAUUUAAGUUUUCAGAGGUAAGUCUGUUGUUCUGAUUAAUCUGCAUUCAUUCAGCGAAUGCUCAAGAC,0.888
GGGCAGCUGGAGGGUAGGCUCAGAAAUGAAGGGAACCCCUCAGUGGGCUGCUGGACCCAUCUUUCCCAAGCCUUGCCAUUAUCUCUGUGAGGGAGGCCAGGUAGCCGAGG,0.529
UUUAGGAGGAUGGUGUAUGGUGGGGGCAAUAAAUGAGGUUUUUUGCAUUCCAAGGAAAUGGCAUAUGGAUUAACUGUAAGAAAUGAAAUAAGUAAUUUAUUGUAAGACAA,1.12
CUUGAAGAAAAGAAUAGAAUUCUCUAGAGCAGAGUAUUUUAGUAUUUGUAACUGGCAGACUCUGGUUCCAUUGUAUUUGUUUCAAAAUGUGUUUUUGUUUGUUUGUUUGU,3.39

# Series 4 — technique: universal PBM; form: double-stranded DNA, one strand shown; medium: in vitro; tested at: 600 nM; reading: higher = stronger binding
# Target: Sal-like protein 4, full length isoform A (SALL4, Homo sapiens, UniProt Q9UJQ4, residues 1-1053)
# Sequence of UniProt Q9UJQ4 (whole entry, looked up): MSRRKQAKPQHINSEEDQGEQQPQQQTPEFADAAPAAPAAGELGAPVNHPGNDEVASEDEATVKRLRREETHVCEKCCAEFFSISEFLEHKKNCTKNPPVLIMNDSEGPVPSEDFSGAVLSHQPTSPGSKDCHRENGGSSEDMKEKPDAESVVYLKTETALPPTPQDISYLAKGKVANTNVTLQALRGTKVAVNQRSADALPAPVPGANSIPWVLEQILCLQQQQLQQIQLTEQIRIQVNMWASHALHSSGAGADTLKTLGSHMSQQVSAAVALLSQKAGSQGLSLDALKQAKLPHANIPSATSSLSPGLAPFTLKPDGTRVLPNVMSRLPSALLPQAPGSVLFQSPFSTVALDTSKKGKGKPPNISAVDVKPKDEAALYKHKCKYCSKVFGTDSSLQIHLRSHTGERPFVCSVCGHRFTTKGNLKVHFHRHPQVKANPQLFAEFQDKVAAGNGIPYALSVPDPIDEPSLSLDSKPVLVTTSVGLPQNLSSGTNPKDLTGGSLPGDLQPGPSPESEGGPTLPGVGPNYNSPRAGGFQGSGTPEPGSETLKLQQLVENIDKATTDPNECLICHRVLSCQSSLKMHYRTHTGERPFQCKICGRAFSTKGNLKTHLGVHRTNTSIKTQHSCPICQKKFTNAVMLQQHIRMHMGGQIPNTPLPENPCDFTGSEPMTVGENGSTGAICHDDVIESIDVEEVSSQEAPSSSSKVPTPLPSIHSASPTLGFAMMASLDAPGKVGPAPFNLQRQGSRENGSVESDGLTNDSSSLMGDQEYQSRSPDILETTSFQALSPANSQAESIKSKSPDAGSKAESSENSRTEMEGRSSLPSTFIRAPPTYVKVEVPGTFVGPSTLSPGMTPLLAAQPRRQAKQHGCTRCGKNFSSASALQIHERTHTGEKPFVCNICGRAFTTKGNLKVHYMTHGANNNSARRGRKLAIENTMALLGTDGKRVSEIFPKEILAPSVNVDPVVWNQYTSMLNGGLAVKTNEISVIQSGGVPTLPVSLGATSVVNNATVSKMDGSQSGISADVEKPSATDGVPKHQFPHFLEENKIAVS
# Setting: 8-mer, flanks averaged, mean of replicates
Sequence,E-score
ACGACTGC,-0.157
TATAATGA,0.336
ATGTGCCA,0.0491
ACAATCCA,0.214
ACTTGCCG,-0.17
AACTTAGT,0.0855
CGTTTGTA,0.102
AAACCGGG,-0.243
AATCAGAT,0.148
AGCGTTCG,-0.237
CTCGGAGA,-0.154
AGGGTGTA,0.0197
ACGATCTA,0.0416
CCCAGCGC,-0.392
CCCCTTGA,-0.0782
ACATTAAT,0.272
AAACTTGC,0.137
ACTACTAA,0.226
AGAAAGAC,-0.117
CTTAAAAA,0.233
ATGAGGAA,0.218
GCCCGGGA,-0.413

# Series 5 — technique: RNA Bind-n-Seq; form: RNA; medium: in vitro; tested at: 200 nM; setting: whole 134-nt RNA, ends assumed; with: 150 mM LiCl; relative to: input library; reading: higher = stronger binding; each molecule: 7-deaza-guanosine replaces G
# Target: Fragile X messenger ribonucleoprotein 1, C-terminal low-complexity region (Fmr1, Mus musculus, UniProt P35922)
# Constant ends, left off below: GGGAGUUCUACAGUCCGACGAUC … UGGAAUUCUCGGGUGUCAAGG
Sequence,log2 enrichment
CAAAAUACCAAGGGAUUUAUAUGAGGAUGAGUUGGUGCCCCUUUUUGAGAAGGCCGGACCCAUUUGGGAUCUACGUCUUAUGAUGGAUCC,0.318
GCAGGAAGUAAAAACAAAUGGAAAUGCUUCGGAUAGUGGCAGGGGUGGGAGUUGCUAAGGAAAGGGUGGGAUGGGAGUGGGUAAAGAGUU,1.42
UGGCCGGUGGCCGUGAGAACACGCUGUGUGGCUGAAAAGUGAAGGCAAGAGCUGAUUUGGCCUCUGUGCUCCCCUCCGCAAGGGGAUCGU,-0.224
CCUGUGCUACACAUCGUAUGUACCGAAUCGGAAAAAAAGGGAAAAAAAGGAAAAAAAGGGAAAGUAUUAUGUUACGCCGUUCGGAUCUGC,-0.685
GUCCUGUGCUACACAUCGUAUGUACCGAAUCGGGUUUUUUGGUUUUUUGGUUUUUUGGGAAAGUAUUAUGUUACGCCGUUCGGAUCUGCA,-1.43
CCUCAAGUCCUGUGCUACACAUCGUAUGUACCGAAUCGGAGGGGAGGGGAGGGAAAGUAUUAUGUUACGCCGUUCGGAUCUGCACUUCCA,-0.615
CACAGACAACACGCACCCACACAGACACAGAAGGAAGGGGUUGGGAUGGGGACAGGGUGCACAGCAGGGCGGGGUAGGACCCCAGCCCCU,0.533
CCUCAAGUCCUGUGCUACACAUCGUAUGUACCGAAUCGGGAGGGGAGGGGAGGAAAGUAUUAUGUUACGCCGUUCGGAUCUGCACUUCCA,-1.31
CACAGACAACACGCACCCACACAGACACAGAGGGAAGGGGUUGGGAUGGGGACAGGGUGCACAGCAGGGCGGGGUAGGACCCAAGCCCCU,-0.509
CACAGACAACACGCACCCACACAGACACAGAGGGAAGGGGUUGGGAUGGGGACCGGGUGCACAGCAGGGCGGGGUAGGACCCCAGCCCCU,-0.0782
ACCAUGCAGGUGGGCAUCUUUGGGAAGUGGGGCAAGGGGGGGAUAGGGAGGGGGGUCACACUUUGGGAACAGGUGGUCCCAGGUCGUUUC,1.37

# Some of these lines once more (series 4):
Sequence,E-score
AATCAGAT,0.148
AGCGTTCG,-0.237
CTCGGAGA,-0.154
AGGGTGTA,0.0197
ACGATCTA,0.0416
